Assay results gathered from unrelated publications.
Numbers after ± are the reported error.

The IL-1β inhibition of CN1CCC[C@]1(C)/C=C/S(=O)(=O)NC(=O)Nc1c2c(cc3c1CCC3)CCC2 is reported as 99.6% (human, whole blood ex vivo; 100 mg twice daily, day 14, 6 h, multiple ascending dose, added: LPS and ATP).
The relative abundance of CC(CCC(=O)NCc1ccc(C(=O)NO)cc1)C1CCC2C3C(O)CC4CC(O)CCC4(C)C3CCC12C (stereo not drawn) is reported as 80.6% (measured: Tauro-conj; PCK rat (Pkhd1 mutant), bile; oral gavage, dose not given, 5 months; baseline: total bile acids).
The inhibition of CC(=O)[O-].O.O.O.O.[Mn+2].[O-]c1ccc(Br)cc1C=NCCN1CCOCC1 is reported as 11.5% (superoxide scavenging; 80 µM).
For COc1cc(O)ccc1CCC(c1ccc(O)cc1)c1cc2c(c(C)c1O)OC(c1ccc(O)cc1)CC2 (mixture of isomers), the 20-OH-LTB4 level was 266 ± 79 pg/mL (human blood; 3 µM, added: A23187).
COC1CN([C@H]2CC[C@H]([C@@]3(C)Oc4c(Cl)cc(C(=O)NCc5c(SC)cc(C)[nH]c5=O)c(C)c4O3)CC2)C1: “log2 fold change” 0.954 (RNA-seq, measured: CREB3L1 mouse homolog; mouse, HT-1376 xenograft, whole blood; dose not given; baseline: vehicle).
For N=C(N)NCCC[C@@H]1NC(=O)[C@H](CCCNC(=N)N)NC(=O)[C@@H](C(c2ccccc2)c2ccccc2)NC(=O)[C@H](Cc2c[nH]c3ccccc23)NC(=O)[C@@H](C(c2ccccc2)c2ccccc2)NC(=O)[C@@H](CCCNC(=N)N)NC(=O)[C@@H](CCCNC(=N)N)NC1=O, the calcein leakage was 56 to 64% (bacterial membrane liposomes; 50 µg/mL, 20 min).
For COc1ccc2cc3[n+](cc2c1OCCCOC(=O)c1cscn1)CCc1cc2c(cc1-3)OCO2, “plasma LDL-C reduction” read 18.7% (C57BL/6 mice, high-fat diet; oral gavage, 10 mg/kg daily, 14 weeks; baseline: HFD control).
CNS(=O)(=O)Nc1nccc(Cc2c(C)c3ccc(Oc4ncccc4F)cc3oc2=O)c1F gave an IC50 of 0.501 µM (OUMS-23; cell viability; 7 days).
The EPA level of COc1ccc(C(=O)CCc2cc(C(CCc3ccc(O)cc3OC)c3ccc(O)cc3)c(O)cc2OC)cc1 (racemic) is reported as 72500 ± 14000 pg/mL (human blood; 10 µM, added: A23187).
With Nc1ncc(-c2cc(-c3cnn(CC(F)(F)F)c3)ncc2F)nc1C(=O)NC1CNCC(F)C1 (stereo not drawn) the remaining binding was 53% (PIM3; KINOMEscan; 1 µM; baseline: DMSO control).
For Cc1ncsc1-c1ccc(C(C)NC(=O)C2CC(O)CN2C(=O)C(NC(=O)CCCCCCCCCCN2CCCC(Nc3ncc(Cl)c(Nc4ccccc4S(=O)(=O)C(C)C)n3)C2)C(C)(C)C)cc1 (stereo not drawn), “log2 fold change” read -1 (22Rv1; RNA-seq, measured: TAOK3 mRNA; concentration not given; baseline: DMSO).
Under “percent of control”, C=CC(=O)Nc1cccc(Cn2ncc3cnc(Nc4cnn(CCOC)c4)nc32)c1 is recorded as 29% (PIP5K2C human; binding, KINOMEscan; 100 nM; lower = stronger binding).

Excerpt of the above:
For N=C(N)NCCC[C@@H]1NC(=O)[C@H](CCCNC(=N)N)NC(=O)[C@@H](C(c2ccccc2)c2ccccc2)NC(=O)[C@H](Cc2c[nH]c3ccccc23)NC(=O)[C@@H](C(c2ccccc2)c2ccccc2)NC(=O)[C@@H](CCCNC(=N)N)NC(=O)[C@@H](CCCNC(=N)N)NC1=O, the calcein leakage was 56 to 64% (bacterial membrane liposomes; 50 µg/mL, 20 min).
